# Measurements gathered from unrelated publications.
# Protocols differ between the studies behind these lines. Several values in a cell are separate wells, animals, samples, runs or records. Numbers after ± are the reported error.
# C3: C3 996-1303 (Homo sapiens, UniProt P01024)
# Chain of UniProt P01024 (whole entry, looked up): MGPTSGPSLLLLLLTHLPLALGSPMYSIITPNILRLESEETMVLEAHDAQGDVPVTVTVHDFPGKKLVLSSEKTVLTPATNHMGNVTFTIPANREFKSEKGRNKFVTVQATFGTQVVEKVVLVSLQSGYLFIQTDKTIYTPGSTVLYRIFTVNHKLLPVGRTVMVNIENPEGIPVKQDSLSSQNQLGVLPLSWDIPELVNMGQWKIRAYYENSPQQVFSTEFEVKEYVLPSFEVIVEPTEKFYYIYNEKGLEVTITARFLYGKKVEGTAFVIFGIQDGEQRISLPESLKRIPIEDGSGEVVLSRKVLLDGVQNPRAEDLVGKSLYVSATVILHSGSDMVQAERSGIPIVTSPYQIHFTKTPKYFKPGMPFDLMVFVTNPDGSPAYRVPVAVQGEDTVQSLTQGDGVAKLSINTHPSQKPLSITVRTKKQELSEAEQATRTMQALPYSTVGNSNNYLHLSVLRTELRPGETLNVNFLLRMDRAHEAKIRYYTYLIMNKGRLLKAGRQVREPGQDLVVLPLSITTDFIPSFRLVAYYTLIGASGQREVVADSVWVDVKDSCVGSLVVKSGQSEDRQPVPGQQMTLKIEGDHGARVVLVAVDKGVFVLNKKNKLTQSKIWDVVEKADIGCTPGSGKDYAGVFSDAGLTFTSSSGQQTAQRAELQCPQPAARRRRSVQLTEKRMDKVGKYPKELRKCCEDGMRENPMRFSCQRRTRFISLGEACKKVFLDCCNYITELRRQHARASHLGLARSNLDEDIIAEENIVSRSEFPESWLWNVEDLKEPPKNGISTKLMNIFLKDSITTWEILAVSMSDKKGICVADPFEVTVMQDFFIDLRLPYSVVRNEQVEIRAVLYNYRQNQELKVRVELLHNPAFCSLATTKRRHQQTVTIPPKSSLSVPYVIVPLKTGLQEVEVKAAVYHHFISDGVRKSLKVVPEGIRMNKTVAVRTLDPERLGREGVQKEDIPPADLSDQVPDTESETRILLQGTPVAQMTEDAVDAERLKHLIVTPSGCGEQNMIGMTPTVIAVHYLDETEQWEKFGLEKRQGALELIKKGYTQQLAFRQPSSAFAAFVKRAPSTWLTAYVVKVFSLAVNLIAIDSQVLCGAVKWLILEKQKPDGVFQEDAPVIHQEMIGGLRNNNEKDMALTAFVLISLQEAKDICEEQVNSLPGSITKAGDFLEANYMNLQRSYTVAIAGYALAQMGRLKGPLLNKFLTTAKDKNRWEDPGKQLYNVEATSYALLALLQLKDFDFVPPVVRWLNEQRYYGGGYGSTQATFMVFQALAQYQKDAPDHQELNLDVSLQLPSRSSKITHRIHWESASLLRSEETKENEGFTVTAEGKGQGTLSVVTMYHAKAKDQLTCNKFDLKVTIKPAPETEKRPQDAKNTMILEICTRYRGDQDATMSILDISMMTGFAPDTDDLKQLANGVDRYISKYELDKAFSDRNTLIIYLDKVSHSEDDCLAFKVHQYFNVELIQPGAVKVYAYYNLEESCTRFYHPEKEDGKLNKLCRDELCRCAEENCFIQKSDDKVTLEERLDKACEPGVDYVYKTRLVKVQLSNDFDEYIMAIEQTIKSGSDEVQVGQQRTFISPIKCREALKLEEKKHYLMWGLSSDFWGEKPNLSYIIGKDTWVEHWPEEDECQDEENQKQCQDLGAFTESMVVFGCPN
# T1: ATRX ADD domain 167-289 K251R/F284Y (Homo sapiens); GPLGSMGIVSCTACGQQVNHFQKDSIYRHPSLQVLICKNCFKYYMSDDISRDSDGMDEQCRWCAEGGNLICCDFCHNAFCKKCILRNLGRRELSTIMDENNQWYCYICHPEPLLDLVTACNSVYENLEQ
# B1: CFH domains 1108-1231 S1191L (Homo sapiens, UniProt P08603); sequence looked up; chain KCGPPPPIDNGDITSFPLSVYAPASSVEYQCQNLYQLEGNKRITCRNGQWSEPPKCLHPCVISREIMENYNIALRWTAKQKLYLRTGESVEFVCKRGYRLSSRSHTLRTTCWDGKLEYPTCAKR
# B2: Pigr 19-135 F5A/Y23A/P25A (Mus musculus, UniProt O70570); sequence looked up; chain KSPIAGPQEVSSIEGDSVSITCAYADTSVNRHTRKYWCRQGASGMCTTLISSNGYLSKEYSGRANLINFPENNTFVINIEQLTQDDTGSYKCGLGTSNRGLSFDVSLEVSQVPELPS
# B3: SGIP1 69-156 S95C (mouse, UniProt Q8VD37); Alexa Fluor 488 label; chain AEIDWERYNSPELDEEGYSIRPEEPGCTKGKHFYSSSESEEEEESHKKFNIKIKPLQSKDVLKNAATVDELKASIGNIALSPSPVRKS
# B4: HCK 78-138 (Homo sapiens, UniProt P08631); chain SEDIIVVALYDYEAIHHEDLSFQKGDQMVVLEESGEWWKARSLATRKEGYIPSNYVARVDS
# B5: RAP1A (Homo sapiens, UniProt P62834); sequence looked up; chain MREYKLVVLGSGGVGKSALTVQFVQGIFVEKYDPTIEDSYRKQVEVDCQQCMLEILDTAGTEQFTAMRDLYMKNGQGFALVYSITAQSTFNDLQDLREQILRVKDTEDVPMILVGNKCDLEDERVVGKEQGQNLARQWCNCAFLESSAKSKINVNEIFYDLVRQINRKTPVEKKKPKKKSCLLL
# B6: EFR3A 721-791 (Homo sapiens, UniProt Q14156); chain SNTEEITFEALKKAIDTSGMEEQEKEKRRLVIEKFQKAPFEEIAAQCESKANLLHDRLAQILELTIRPPPS
# B7: GIGYF2 35-105 E46A/E47F/Q89A (Homo sapiens, UniProt Q6Y7W6-1); chain KYKLADYRYGRAFMLALFLKDNKIPSDLLDKEFLPILQEEPLPPLALVPFTEEEARNFSMSVNSAAVLRLT
# B8: sst2 catalytic domain 245-435 (Schizosaccharomyces pombe, UniProt Q9P371); sequence looked up; chain AGTFKIHAYTEGGKPLRTIYLPKLLKKVFLDVVKPNTKKNLETCGILCGKLRQNAFFITHLVIPLQEATSDTCGTTDEASLFEFQDKHNLLTLGWIHTHPTQTCFMSSVDLHTHCSYQLMLPEAIAIVMAPSKNTSGIFRLLDPEGLQTIVKCRKPGLFHPHEGKVYTMVAQPGHVREINSKLQVVDLRVK
# B9: MDM4 23-260 (Homo sapiens, UniProt O15151); chain GPLGSQINQVRPKLPLLKILHAAGAQGEMFTVKEVMHYLGQYIMVKQLYDQQEQHMVYCGGDLLGELLGRQSFSVKDPSPLYDMLRKNLVTLATATTDAAQTLALAQDHSMDIPSQDQLKQSAEESSTSRKRTTEDDIPTLPTSEHKCIHSREDEDLIENLAQDETSRLDLGFEEWDVAGLPWWFLGNLRSNYTPRSNGSTDLQTNQDVGTAIVSDTTDDLWFLNESVSEQLGVGIKVEAADT
# B10: PROS1 mature, fully Gla-carboxylated (Homo sapiens, UniProt P07225); sequence looked up; chain ANSLLEETKQGNLERECIEELCNKEEAREVFENDPETDYFYPKYLVCLRSFQTGLFTAARQSTNAYPDLRSCVNAIPDQCSPLPCNEDGYMSCKDGKASFTCTCKPGWQGEKCEFDINECKDPSNINGGCSQICDNTPGSYHCSCKNGFVMLSNKKDCKDVDECSLKPSICGTAVCKNIPGDFECECPEGYRYNLKSKSCEDIDECSENMCAQLCVNYPGGYTCYCDGKKGFKLAQDQKSCEVVSVCLPLNLDTKYELLYLAEQFAGVVLYLKFRLPEISRFSAEFDFRTYDSEGVILYAESIDHSAWLLIALRGGKIEVQLKNEHTSKITTGGDVINNGLWNMVSVEELEHSISIKIAKEAVMDINKPGPLFKPENGLLETKVYFAGFPRKVESELIKPINPRLDGCIRSWNLMKQGASGIKEIIQEKQNKHCLVTVEKGSYYPGSGIAQFHIDYNNVSSAEGWHVNVTLNIRPSTGTGVMLALVSGNNTVPFAVSLVDSTSEKSQDILLSVENTVIYRIQALSLCSDQQSHLEFRVNRNNLELSTPLKIETISHEDLQRQLAVLDKAMKAKVATYLGGLPDVPFSATPVNAFYNGCMEVNINGVQLDLDEAISKHNDIRAHSCPSVWKKTKNS
# B11: TEPSIN W188S/D189S/E190S/L191S (Homo sapiens, UniProt Q96N21); chain MAAAPPLRDRLSFLHRLPILLKGTSDDDVPCPGYLFEEIAKISHESPGSSQCLLEYLLSRLHSSSGHGKLKVLKILLYLCSHGSSFFLLILKRNSAFIQEAAAFAGPPDPLHGNSLYQKVRAAAQDLGSTLFSDTVLPLAPSQPLGTPPATGMGSQARPHSTLQGFGYSKEHGRTAVRHQPGQAGGGSSSSDSGPSSQNSSQNSDLSRVSDSGSHSGSDSHSGASREPGDLAERVEVVALSDCQQELSLVRTVTRGPRAFLSREEAQHFIKACGLLNCEAVLQLLTCHLRGTSECTQLRALCAIASLGSSDLLPQEHILLRTRPWLQELSMGSPGPVTNKATKILRHFEASCGQLSPARGTSAEPGPTAALPGPSDLLTDAVPLPGSQVFLQPLSSTPVSSRSPAPSSGMPSSPVPTPPPDASPIPAPGDPSEAEARLAESRRWRPERIPGGTDSPKRGPSSCAWSRDSLFAGMELVACPRLVGAGAAAGESCPDAPRAPQTSSQRTAAKEPPGSEPSAFAFLNA
# B12: Cacna1c 1647-1777 (Mus musculus, UniProt Q01815); sequence looked up; chain NALSLQAGLRTLHDIGPEIRRAISGDLTAEEELDKAMKEAVSAASEDDIFRRAGGLFGNHVTYYQSDSRGNFPQTFATQRPLHINKTGNNQADTESPSHEKLVDSTFTPSSYSSTGSNANINNANNTALGR
# B13: BBC3 (Homo sapiens, UniProt Q9BXH1-2); chain MKFGMGSAQACPCQVPRAASTTWVPCQICGPQPSLSLAEQHLESPVPSAPGALAGGPTQAAPGVRGEEEQWAREIGAQLRRMADDLNAQYERRRQEEQQRHRPSPWRVLYNLIMGLLPLPRGHRAPEMEPN
# B14: PLXNB1 RBD 1746-1852 (Homo sapiens, UniProt O43157); sequence looked up; chain YRPLTLNALLAVGPGAGEAQGVPVKVLDCDTISQAKEKMLDQLYKGVPLTQRPDPRTLDVEWRSGVAGHLILSDEDVTSEVQGLWRRLNTLQHYKVPDGATVALVPC
# B15: NR3C1 1-525 (Homo sapiens, UniProt P04150); pyrene label; chain MDSKESLTPGREENPSSVLAQERGDVMDFYKTLRGGATVKVSASSPSLAVASQSDSKQRRLLVDFPKGSVSNAQQPDLSKAVSLSMGLYMGETETKVMGNDLGFPQQGQISLSSGETDLKLLEESIANLNRSTSVPENPKSSASTAVSAAPTEKEFPKTHSDVSSEQQHLKGQTGTNGGNVKLYTTDQSTFDILQDLEFSSGSPGKETNESPWRSDLLIDENCLLSPLAGEDDSFLLEGNSNEDCKPLILPDTKPKIKDNGDLVLSSPSNVTLPQVKTEKEDFIELCTPGVIKQEKLGTVYCQASFPGANIIGNKMSAISVHGVSTSGGQMYHYDMNTASLSQQQDQKPIFNVIPPIPVGSENWNRCQGSGDDNLTSLGTLNFPGRTVFSNGYSSPSMRPDVSSPPSSSSTATTGPPPKLCLVCSDEASGCHYGVLTCGSCKVFFKRAVEGQHNYLCAGRNDCIIDKIRRKNCPACRYRKCLQAGMNLEARKTKKKIKGIQQATTGVSQETSENPGNKTIVPATL
# B16: CFH 1108-1231 S1191L/V1197A (Homo sapiens, UniProt P08603); sequence looked up; chain KCGPPPPIDNGDITSFPLSVYAPASSVEYQCQNLYQLEGNKRITCRNGQWSEPPKCLHPCVISREIMENYNIALRWTAKQKLYLRTGESAEFVCKRGYRLSSRSHTLRTTCWDGKLEYPTCAKR
# Chain of UniProt P06241 (whole entry, looked up): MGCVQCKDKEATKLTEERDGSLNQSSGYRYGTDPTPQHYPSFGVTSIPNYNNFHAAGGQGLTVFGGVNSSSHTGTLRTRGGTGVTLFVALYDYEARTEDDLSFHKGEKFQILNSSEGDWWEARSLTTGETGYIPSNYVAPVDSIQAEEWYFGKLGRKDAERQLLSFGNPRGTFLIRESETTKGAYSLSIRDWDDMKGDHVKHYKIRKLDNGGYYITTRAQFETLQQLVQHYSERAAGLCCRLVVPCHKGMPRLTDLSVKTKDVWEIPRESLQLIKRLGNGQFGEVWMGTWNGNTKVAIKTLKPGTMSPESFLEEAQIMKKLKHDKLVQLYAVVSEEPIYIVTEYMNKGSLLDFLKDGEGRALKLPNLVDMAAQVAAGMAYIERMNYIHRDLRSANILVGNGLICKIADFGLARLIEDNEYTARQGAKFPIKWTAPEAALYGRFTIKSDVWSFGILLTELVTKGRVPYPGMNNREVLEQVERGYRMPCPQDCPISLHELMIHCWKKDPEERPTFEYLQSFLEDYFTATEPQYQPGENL
# Chain of UniProt P54609 (whole entry, looked up): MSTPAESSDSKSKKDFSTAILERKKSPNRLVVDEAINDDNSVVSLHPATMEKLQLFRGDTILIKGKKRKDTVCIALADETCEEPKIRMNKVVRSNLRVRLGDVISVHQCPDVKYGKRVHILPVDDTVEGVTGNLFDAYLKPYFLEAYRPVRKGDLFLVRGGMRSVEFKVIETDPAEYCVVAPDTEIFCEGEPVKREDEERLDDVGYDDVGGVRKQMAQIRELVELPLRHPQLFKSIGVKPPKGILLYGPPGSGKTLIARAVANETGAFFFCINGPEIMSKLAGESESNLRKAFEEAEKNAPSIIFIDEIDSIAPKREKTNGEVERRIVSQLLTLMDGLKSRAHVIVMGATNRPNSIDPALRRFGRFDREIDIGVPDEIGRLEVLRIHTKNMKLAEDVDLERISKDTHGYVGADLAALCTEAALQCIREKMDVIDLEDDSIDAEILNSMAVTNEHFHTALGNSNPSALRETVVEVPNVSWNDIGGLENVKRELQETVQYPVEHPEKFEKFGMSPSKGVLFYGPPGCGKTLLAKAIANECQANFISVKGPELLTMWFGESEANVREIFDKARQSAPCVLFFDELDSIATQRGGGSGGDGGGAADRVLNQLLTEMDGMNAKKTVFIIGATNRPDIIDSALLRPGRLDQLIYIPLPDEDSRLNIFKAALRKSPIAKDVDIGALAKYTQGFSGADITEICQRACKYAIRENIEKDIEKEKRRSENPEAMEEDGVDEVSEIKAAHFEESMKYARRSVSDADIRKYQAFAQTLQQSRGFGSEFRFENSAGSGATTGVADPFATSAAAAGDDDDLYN
# Chain of UniProt Q8TCU6 (whole entry, looked up): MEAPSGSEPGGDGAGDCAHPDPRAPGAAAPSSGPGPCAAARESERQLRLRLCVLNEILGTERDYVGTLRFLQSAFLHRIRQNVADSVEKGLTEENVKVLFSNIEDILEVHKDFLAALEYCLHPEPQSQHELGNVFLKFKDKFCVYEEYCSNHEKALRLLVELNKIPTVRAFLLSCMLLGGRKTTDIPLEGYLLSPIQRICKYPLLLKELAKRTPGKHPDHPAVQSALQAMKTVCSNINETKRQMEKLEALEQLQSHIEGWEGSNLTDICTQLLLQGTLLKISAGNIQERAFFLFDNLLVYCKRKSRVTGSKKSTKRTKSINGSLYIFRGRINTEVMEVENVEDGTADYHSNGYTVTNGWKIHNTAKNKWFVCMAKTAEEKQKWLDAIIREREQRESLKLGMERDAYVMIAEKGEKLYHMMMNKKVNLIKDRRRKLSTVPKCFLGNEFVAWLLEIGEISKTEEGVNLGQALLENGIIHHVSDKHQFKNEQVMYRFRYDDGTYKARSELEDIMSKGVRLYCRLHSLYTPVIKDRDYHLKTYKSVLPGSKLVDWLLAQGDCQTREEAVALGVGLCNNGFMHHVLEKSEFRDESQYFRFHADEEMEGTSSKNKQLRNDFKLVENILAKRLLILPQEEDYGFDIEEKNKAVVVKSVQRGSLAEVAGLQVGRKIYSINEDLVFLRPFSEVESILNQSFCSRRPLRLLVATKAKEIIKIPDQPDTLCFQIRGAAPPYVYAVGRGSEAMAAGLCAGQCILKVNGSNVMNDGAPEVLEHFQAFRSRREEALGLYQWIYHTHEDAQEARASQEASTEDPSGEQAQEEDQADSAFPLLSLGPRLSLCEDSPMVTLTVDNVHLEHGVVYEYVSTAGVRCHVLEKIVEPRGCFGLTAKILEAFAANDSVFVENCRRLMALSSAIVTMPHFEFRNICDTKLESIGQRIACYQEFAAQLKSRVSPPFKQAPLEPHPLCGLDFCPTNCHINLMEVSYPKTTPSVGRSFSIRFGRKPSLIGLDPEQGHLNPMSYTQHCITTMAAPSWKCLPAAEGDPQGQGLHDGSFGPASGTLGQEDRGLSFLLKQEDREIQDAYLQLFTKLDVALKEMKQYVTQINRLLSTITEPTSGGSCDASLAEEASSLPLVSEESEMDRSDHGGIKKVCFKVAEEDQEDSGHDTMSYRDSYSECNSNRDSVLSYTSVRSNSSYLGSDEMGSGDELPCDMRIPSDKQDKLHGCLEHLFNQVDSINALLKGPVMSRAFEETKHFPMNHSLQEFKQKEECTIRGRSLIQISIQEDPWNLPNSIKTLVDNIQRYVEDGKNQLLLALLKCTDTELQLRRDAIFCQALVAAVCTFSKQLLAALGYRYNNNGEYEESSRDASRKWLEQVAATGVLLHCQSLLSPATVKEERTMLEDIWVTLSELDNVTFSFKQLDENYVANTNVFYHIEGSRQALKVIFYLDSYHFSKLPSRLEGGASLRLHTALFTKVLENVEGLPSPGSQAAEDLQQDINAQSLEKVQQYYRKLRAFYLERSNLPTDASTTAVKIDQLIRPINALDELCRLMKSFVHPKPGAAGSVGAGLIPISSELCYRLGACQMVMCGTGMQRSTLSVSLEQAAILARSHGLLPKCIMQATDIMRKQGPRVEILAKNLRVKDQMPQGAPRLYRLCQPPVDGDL
# Chain of UniProt Q92730 (whole entry, looked up): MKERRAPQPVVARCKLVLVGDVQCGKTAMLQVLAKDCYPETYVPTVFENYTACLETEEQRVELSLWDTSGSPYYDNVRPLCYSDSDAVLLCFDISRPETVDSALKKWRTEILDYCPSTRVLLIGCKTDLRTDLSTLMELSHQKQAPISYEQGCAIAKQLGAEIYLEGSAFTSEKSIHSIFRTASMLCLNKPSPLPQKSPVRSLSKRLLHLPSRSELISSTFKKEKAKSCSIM
Molecule,partner,assay,test system,conditions,Kd
B1 (CFH domains 1108-1231 S1191L),C3,SPR,,,4.6 ± 0.2 µM
B2 (Pigr 19-135 F5A/Y23A/P25A),"IgA Fc/J chain CH2-CH3 domains, dimeric 113-344 (Mus musculus)",SPR,,,0.445 µM
"HMGB1 (Homo sapiens, UniProt P09429)","TLR2 (Homo sapiens, UniProt O60603)",SPR,,,0.496 µM
"BAK1 BH3, N-acetyl; C-terminal amide (Homo sapiens)","MBP/MCL1 MCL-1, Alexa 647 label (Homo sapiens)",MST,,,0.0205 ± 0.008 µM
B3 (SGIP1 69-156 S95C),"AP2A2/AP2B1/AP2M1/AP2S1 core, lacking appendage domains (Mus musculus)",MST,,,0.54 µM
ARTKQTARKS (H3C1 1-10; R2me2a),"T1, ATRX ADD domain 167-289 K251R/F284Y (Homo sapiens)",ITC,peptide,,7.69 µM
CALLLSAPRR (GOT2 (Gallus gallus); fluorescein label),"HSPA9 47-600 (Homo sapiens, UniProt P38646)",FP,peptide,,34.5 µM
B4 (HCK 78-138),"PIK3R1 80-333 (Homo sapiens, UniProt P27986)",ITC,,,26.2 ± 1.3 µM
SPTBN2 actin-binding domain F160C (sequence not shown),"ACTA1 F-actin (Oryctolagus cuniculus, UniProt P68135)",co-sedimentation,,,< 1 µM
"Diaph1 (Mus musculus, UniProt O08808)","ACTA1/Capza1/Capzb CP-capped barbed end filament, Alexa-488 label (Oryctolagus cuniculus/Mus musculus)","CP detachment from filament, mf-TIRF",,"apparent, hyperbolic fit, ADP-actin",0.159 µM
B5 (RAP1A),"PREX1 (Homo sapiens, UniProt Q8TCU6)",fluorescence titration,,together with: mant-GDP 1 µM,88 ± 8 µM
B6 (EFR3A 721-791),TTC7B/FAM126A 1-308,BLI,,,4.1e-05 ± 2.5e-05 µM
B7 (GIGYF2 35-105 E46A/E47F/Q89A),"EIF4E2 52-234 Q159S/M161D/R202E (Homo sapiens, UniProt O60573-1)",ITC,peptide,,0.0005 ± 0.0003 µM
"PUX5 (Arabidopsis thaliana, UniProt Q7Y175)","CDC48A (Arabidopsis thaliana, UniProt P54609)",ITC,,25 °C,2.5 ± 0.2 µM
PRPRPRPRPRPRPRPRPRPRPRPRPRPRPRPRPRPRPRPR ((PR)20 20 repeats; TAMRA label N-terminal),"FUS 215-526 (Homo sapiens, UniProt P35637)",fluorescence polarisation,peptide,,0.0656 ± 0.0113 µM
B8 (sst2 catalytic domain 245-435),UBB mature (UniProt P0CG47),ITC,,,10.2 ± 0.6 µM
ARTKQTARKS (histone H3 1-10; K4me3),"ING2 189-262 Y208A (Arabidopsis thaliana, UniProt B3H615)",ITC,peptide,,59.4 ± 5.6 µM
B9 (MDM4 23-260),TP53 1-312 (UniProt P04637),ITC,,,13.8 µM
B10,C4BPA/C4BPB mature (Homo sapiens),ELISA,,,0.0007 µM
"petF ferredoxin (Synechocystis sp. PCC 6803, UniProt P27320)",narB R351Q (Synechococcus sp. PCC 7942),UV-visible difference titration,,,11.5 ± 3.8 µM
SCN2A fragment R1917A (Homo sapiens) (sequence not shown),"CALM1 (Homo sapiens, UniProt P0DP23)",fluorescence titration,,"pH 7.4, 22 °C, together with: calcium",0.0819 µM
B11 (TEPSIN W188S/D189S/E190S/L191S),"MAP1LC3B 1-120 (Homo sapiens, UniProt Q9GZQ8)",BLI,,,92.3 µM and 96.3 µM and 114 µM and 101 µM
BSG extracellular domain deleted,"G3BP1 (Homo sapiens, UniProt Q13283)",SPR,,,0.032 µM
WHRSYYTWN (TR3 peptide; Fam label),"CD274 (Homo sapiens, UniProt Q9NZQ7)",flow cytometry,"peptide, MDA-MB-231","apparent, on cells",0.482 µM
Unc5D fragment (Rattus norvegicus) (sequence not shown),Flrt2 ectodomain (Mus musculus),SPR,,,0.31 µM
B12 (Cacna1c 1647-1777),"Jph2 1-440 S165E (Mus musculus, UniProt Q9ET78)",ITC,,,5.46 µM
B13 (BBC3),BCL2L1 fragment (Homo sapiens),ITC,,,0.001 µM
B14 (PLXNB1 RBD 1746-1852),"RND1 5-200 (Homo sapiens, UniProt Q92730)",SPR,,,1.51 ± 0.42 µM
PKPRPPRPLPVAP (PIK3R1 87-99 (Homo sapiens)),"FYN 82-144 (Homo sapiens, UniProt P06241)",MST,peptide,,37.6 ± 6.1 µM
KLLMIIHDRREAAKAEKEKMNAKWDTGENPIYKSAVTTVVNPKYEGK (ITGB1 cytoplasmic tail 752-798 FF/AA (UniProt P05556-1); sequence looked up),"Tln1 309-405 (Mus musculus, UniProt P26039)",NMR titration,,,1280 µM
B15 (NR3C1 1-525),"TSG101 229-304 coiled coil, pyrene label (Homo sapiens, UniProt Q99816)",fluorescence anisotropy,,,34 µM
KRRQNLIRHFFHSKR (CDKN1A/RECQL5 chimeric PIP-box peptide; C-terminal amide),"PCNA (Homo sapiens, UniProt P12004)",SPR,peptide,,> 40 µM
B16 (CFH 1108-1231 S1191L/V1197A),C3,SPR,,,5.2 ± 0.2 µM
